Measured values of several laboratories.
Each numbered part is a random draw from the data of one study; scales do not carry over between parts.
Chain of UniProt P11712 (whole entry, looked up): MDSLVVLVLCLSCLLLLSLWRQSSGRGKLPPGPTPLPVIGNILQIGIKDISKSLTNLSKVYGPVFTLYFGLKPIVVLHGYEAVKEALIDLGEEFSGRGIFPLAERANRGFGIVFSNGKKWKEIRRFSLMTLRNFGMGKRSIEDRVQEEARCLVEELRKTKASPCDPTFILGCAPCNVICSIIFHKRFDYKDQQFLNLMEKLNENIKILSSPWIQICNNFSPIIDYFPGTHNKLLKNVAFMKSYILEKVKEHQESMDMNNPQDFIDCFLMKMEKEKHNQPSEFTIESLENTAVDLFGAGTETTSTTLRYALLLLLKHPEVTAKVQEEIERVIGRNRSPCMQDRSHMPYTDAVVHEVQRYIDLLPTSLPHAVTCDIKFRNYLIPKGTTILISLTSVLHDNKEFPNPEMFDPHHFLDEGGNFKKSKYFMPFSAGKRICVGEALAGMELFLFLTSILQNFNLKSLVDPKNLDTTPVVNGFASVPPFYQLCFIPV

Sample 1
Target: Replicase polyprotein 1ab, polymerase (rep, Severe acute respiratory syndrome coronavirus 2, UniProt P0DTD1)
Read-out: enzyme activity
Action: inhibitor
Concentration: 20 µM
SMILES	inhibition [%]
O=C(O)CCc1nc2ccccc2[nH]1	1.57
N[C@@H](Cc1cc(-c2ccc(Cl)cc2Cl)cc(CP(=O)(O)O)c1O)C(=O)O	8.99
Cc1cc2ncc(C(=O)NCC(C)(C)NCC(=O)N3CCC[C@H]3C#N)cn2n1	0.87
CCS(=O)(=O)N1CCC([C@@H](C)n2c(C)c(C(=O)NCc3c(OC)cc(C)[nH]c3=O)c3ccccc32)CC1	-5.12
CN(C)C(=O)Oc1ccc[n+](C)c1	-3.58
O=C(O)c1ccc(N2C(=O)/C(=C\c3ccc(-c4ccc([N+](=O)[O-])cc4)o3)C=C2c2ccccc2)cc1	14
O=C(Nc1ccc(OC(F)(F)F)cc1)c1sccc1NCc1ccnc2ccccc12	-3.72
CN(C)C[C@H](O)Cn1c2ccc(Br)cc2c2cc(Br)ccc21 (racemic)	3.09
CC(C)(N)c1cc(C(=O)N[C@@H]2CCc3ccc(Oc4ccnc5c4CCC(=O)N5)cc3C2)cc(C(F)(F)F)c1	3.78
CC1(C)S[C@@H]2[C@H](NC(=O)COc3ccccc3)C(=O)N2[C@H]1C(=O)O	29.7
NC(=O)N1c2ccccc2CC(O)c2ccccc21 (stereo not drawn)	-5.01
OC[C@H]1NCC[C@@H](O)[C@@H]1O	-6.04

Sample 2
Cell line: HEK-293T
Read-out: pseudovirus infection
Method: FDA-approved drug library screen
Organism: VSV pseudotyped with SARS-CoV-2 spike
Concentration: 10 µM
Time: 16 h
Relative to: vehicle-treated
SMILES	GFP-positive cells [%]
C[C@@H]1[C@H](O)[C@@H](C)/C=C/C=C/C=C/C=C/C=C/C=C/C=C/[C@H](O[C@@H]2O[C@H](C)[C@@H](O)[C@H](N)[C@@H]2O)C[C@@H]2O[C@](O)(C[C@@H](O)C[C@@H](O)[C@H](O)CC[C@@H](O)C[C@@H](O)CC(=O)O[C@H]1C)C[C@H](O)[C@H]2C(=O)O	91.7
CC[C@]1(O)C[C@H]2CN(CCc3c([nH]c4ccccc34)[C@@](C(=O)OC)(c3cc4c(cc3OC)N(C=O)[C@H]3[C@@](O)(C(=O)OC)[C@H](OC(C)=O)[C@]5(CC)C=CCN6CC[C@]43[C@@H]65)C2)C1	11
CCOc1nc2cccc(C(=O)O)c2n1Cc1ccc(-c2ccccc2-c2nc(=O)o[nH]2)cc1	119

Sample 3
Structure (SMILES): O=C1C(=Cc2cccnc2)C(=O)c2ccccc21
Target: Replicase polyprotein 1ab, main protease (rep, Severe acute respiratory syndrome coronavirus 2, UniProt P0DTD1)
Read-out: enzyme activity
Action: inhibitor
Concentration: 20 µM
setting	inhibition [%]
–	60.4
primary screen	81
hit confirmation, no DTT	75.7

Mixed results
Substance	target or system	assay	system	setting	quantity	result
SASFSTFKCYGVSPT	human CD4 T cells	AIM	peptide	–	responding donors	8%
CCCCN(CCCC)CCCNC(=O)c1ccc2nc(N3CCCCC3)sc2c1	SARS-CoV-2	cytopathic effect	USA_WA1/2020	retest, 8-point, duplicates	efficacy	83.7%
Cn1cnc(Cn2c(=O)[nH]/c(=N\c3cc4cn(C)nc4cc3Cl)n(Cc3cc(F)c(F)cc3F)c2=O)n1	Cytochrome P450 2C9 (CYP2C9, Homo sapiens, UniProt P11712)	inhibitor	human liver microsomes	0 min preincubation, together with: diclofenac 12 µM	IC50	> 100 µM
CC[C@H](C)[C@H](NC(=O)[C@H](CC(C)C)NC(=O)[C@H](Cc1c[nH]c2ccccc12)NC(=O)[C@H](CCC(N)=O)NC(=O)[C@@H](NC(=O)[C@H](Cc1ccccc1)NC(=O)[C@H](C)NC(=O)[C@H](CCCCNC(=O)COCCOCCNC(=O)COCCOCCNC(=O)CC[C@H](NC(=O)CCCCCCCCCCCCCCCCCCC(=O)O)C(=O)O)NC(=O)[C@H](CCC(N)=O)NC(=O)[C@H](C)NC(=O)[C@@H](NC(=O)[C@H](CCCCN)NC(=O)[C@H](CC(=O)O)NC(=O)[C@H](CC(C)C)NC(=O)C(C)(C)NC(=O)[C@@H](NC(=O)[C@H](CO)NC(=O)[C@H](Cc1ccc(O)cc1)NC(=O)[C@H](CC(=O)O)NC(=O)[C@H](CO)NC(=O)[C@@H](NC(=O)[C@H](Cc1ccccc1)NC(=O)[C@@H](NC(=O)CNC(=O)[C@H](CCC(=O)O)NC(=O)C(C)(C)NC(=O)[C@@H](N)Cc1ccc(O)cc1)[C@@H](C)O)[C@@H](C)O)[C@@H](C)CC)[C@@H](C)CC)C(C)C)C(=O)N[C@@H](C)C(=O)NCC(=O)NCC(=O)N1CCC[C@H]1C(=O)N[C@@H](CO)C(=O)N[C@@H](CO)C(=O)NCC(=O)N[C@@H](C)C(=O)N1CCC[C@H]1C(=O)N1CCC[C@H]1C(=O)N1CCC[C@H]1C(=O)N[C@@H](CO)C(N)=O	–	item: treatment-emergent catheter site bruise	healthy subjects	1.5 mg, multiple ascending dose	subjects with adverse event	0%
COc1ccc(N2CCN(CCCNC(=O)c3cc(Nc4ccc(OC)cc4OC)nc4ccccc34)CC2)cc1	SARS-CoV-2	cytopathic effect	USA_WA1/2020	retest, 8-point, duplicates	maximum response	51.7%
Nc1ncnc2c([C@@H]3N[C@H](CO)[C@@H](O)[C@H]3O)c[nH]c12	Marburg virus	viral replication	HeLa, Musoke	6.3 µM	inhibition	74%

A few entries again (sample 1):
SMILES	inhibition [%]
N[C@@H](Cc1cc(-c2ccc(Cl)cc2Cl)cc(CP(=O)(O)O)c1O)C(=O)O	8.99
CC1(C)S[C@@H]2[C@H](NC(=O)COc3ccccc3)C(=O)N2[C@H]1C(=O)O	29.7
OC[C@H]1NCC[C@@H](O)[C@@H]1O	-6.04
